{"data": "Measurements collected from several papers", "note": "Protocols differ between the studies behind these lines. Values joined by “and” are separate records of one study, mostly repeats; a detail may differ. ± marks the error that the study gave."}
{"Structure (SMILES)": "CC[C@H](C)[C@@H]1NC(=O)[C@H](Cc2ccc(O)cc2)NC(=O)CCCSC[C@@H](C(=O)N(CC(=O)N[C@@H](CC(C)C)C(=O)NCC(N)=O)Cc2ccc(F)cc2)NC(=O)[C@H](CC(N)=O)NC(=O)[C@H](CCC(N)=O)NC1=O", "system": "human", "conditions": "intranasal, 50 µg repeated doses", "quantity": "serious adverse events", "result": "0%"}
{"Structure (SMILES)": "COC1CN([C@H]2CC[C@H]([C@@]3(C)Oc4c(Cl)cc(C(=O)NCc5c(SC)cc(C)[nH]c5=O)c(C)c4O3)CC2)C1", "test": "RNA-seq, measured: C3orf70", "system": "human, whole blood", "conditions": "dose not given, 24 h", "how to read": "baseline: pretreatment baseline", "quantity": "log2 fold change", "result": 2.87}
{"Structure (SMILES)": "CC(C(=O)O)n1nc(Cn2cc3cc(OCC[18F])c(Cl)cc3n2)c2ccccc2c1=O (racemic)", "system": "rat, blood", "conditions": "1 h", "quantity": "tracer uptake", "result": "0.46 %ID/g"}
{"Structure (SMILES)": "COc1cccc(OC)c1-c1cc(C(=O)NC2(C(=O)O)C3CC4CC(C3)CC2C4)nn1-c1ccc(C(=O)NCCNC(=O)[C@H](CCCCNC(=O)[C@H](CC(C)C)NC(=O)C2OC2C(=O)O)NC(=O)CN2CCN(CC(=O)[O-])CCN(CC(=O)[O-])CCN(CC(=O)[O-])CC2)cc1C(C)C.[177Lu+3] (mixture of isomers)", "system": "mouse, HT-29 xenograft", "conditions": "24 h post injection, biodistribution", "how to read": "baseline: tumour over heart uptake", "quantity": "tumour-to-heart ratio", "result": 19}
{"Structure (SMILES)": "O=C(c1ccccc1)N1C(c2ccc(OCC3CCN(CCCF)C3)cc2)c2ccc(O)cc2CC12CC2 (centres unmarked)", "system": "C57BL/6J mouse, plasma", "conditions": "intraperitoneal, 25 mg/kg", "quantity": "MRT(0-inf)", "result": "2.11 h"}
{"Structure (SMILES)": "O=C(Nc1cnccc1-c1ccc([18F])nc1)c1ccnc(NC(=O)C2CC2)c1", "system": "FVB/NJ mice, both sexes, brain", "conditions": "intravenous, 30 min, median, no P-gp inhibitor", "quantity": "SUV", "result": 0.078}
{"Structure (SMILES)": "C=C(NC(=O)c1csc(-c2nc3c(cc2O)-c2nc(cs2)C(=O)NC(C(C)O)C(=O)NC(=C(C)OC)c2nc(cs2)C(=O)NC2c4nc(cs4)C(=O)NC(COC(=O)c4c5c6c(cccc6n4O)COC(=O)C(OC4CC(C)(O)C(N(C)C)C(C)O4)C2OC5)c2nc-3cs2)n1)C(N)=O (centres unmarked)", "system": "cynomolgus monkey, female, plasma", "conditions": "intravenous infusion, 1.5 mg/kg twice daily, 0 to 30 h", "quantity": "Tmax", "result": "2.08 h"}
{"Structure (SMILES)": "O=C(Nc1cnccc1-c1ccc([18F])cc1)c1ccnc(NC(=O)C2CC2)c1", "system": "mice, transgenic, GSK-3β, early-stage, spleen", "conditions": "intravenous, dose not given, 120 min", "quantity": "SUV", "result": 0.09}
{"Structure (SMILES)": "CCCCN1C(=O)c2cccc3c(NCCCN4CCOCC4)ccc(c23)C1=O", "system": "ethyl acetate", "quantity": "fluorescence quantum yield", "result": 0.34}
{"Structure (SMILES)": "CCCC[C@H](OC(C)=O)c1ccccc1C(=O)O", "system": "Sprague-Dawley rats, both sexes, whole blood", "conditions": "intravenous, 20 mg/kg single dose", "quantity": "Vss", "result": "1.73 ± 0.356 L/kg"}
{"Structure (SMILES)": "Fc1cncc(-c2ccc3[nH]c4ncnc(N[C@H]5CC[C@H](N6CCOCC6)CC5)c4c3c2)c1", "system": "ICR mice, plasma", "conditions": "oral, 10 mg/kg", "quantity": "AUC(0-t)", "result": "387 ± 254 ng·h/mL"}
{"Structure (SMILES)": "C=CC(=O)Nc1cc(Nc2nccc(-c3cn(C)c4ccccc34)n2)c(OC)cc1N(C)CCNC", "system": "human, plasma", "conditions": "270 ng/mL, 2 h, on ice, high QC level", "quantity": "remaining compound", "result": "100%"}
{"Structure (SMILES)": "CC(C)C[C@H](NC(=O)[C@@H](CCCCNC(=O)[C@@H](Cc1ccccc1)NC(=O)CCCCCCCNC(=O)CN1CCN(CC(=O)O)CCN(CC(=O)O)CCN(CC(=O)O)CC1)NC(=O)[C@H](Cc1ccc(O)cc1)NC(=O)[C@H](CO)NC(=O)[C@H](Cc1c[nH]c2ccccc12)NC(=O)[C@H](Cc1c[nH]cn1)NC(=O)[C@@H]1CCC(=O)N1)C(=O)N[C@@H](CCCNC(=N)N)C(=O)N1CCC[C@H]1C(=O)NCC(N)=O [indium-111 labelled]", "system": "male athymic nude mice, DU-145 prostate cancer xenograft, tumour", "conditions": "intravenous, 0.037 MBq, 0.5 h", "how to read": "baseline: tumour over blood", "quantity": "tumour-to-tissue ratio", "result": 0.77}
{"Structure (SMILES)": "CC(=O)N[C@H](CC(=O)O)C(=O)N[C@H](Cc1c[nH]c2ccccc12)C(=O)N[C@H](Cc1ccccc1)C(=O)N[C@H](CCCCN)C(=O)N[C@H](C)C(=O)N[C@H](Cc1ccccc1)C(=O)N[C@H](Cc1ccc(O)cc1)C(=O)N[C@H](CC(=O)O)C(=O)N[C@H](CCCCN)C(=O)N[C@@H](C(=O)N[C@H](C)C(=O)N[C@H](CCC(=O)O)C(=O)N[C@H](CCCCN)C(=O)N[C@H](Cc1ccccc1)C(=O)N[C@H](CCCCN)C(=O)N[C@H](CCC(=O)O)C(=O)N[C@H](C)C(=O)N[C@H](Cc1ccccc1)C(N)=O)C(C)C", "system": "human, plasma", "conditions": "oral, 500 mg daily, 2 h post-dose, day 13", "quantity": "plasma concentration", "result": "246 ng/mL"}
{"Structure (SMILES)": "COc1cc(N2CCN(C(=O)C3CCCN3)CC2)ccc1Nc1ncc(Cl)c(Nc2ccccc2P(C)(C)=O)n1 (centres unmarked)", "system": "nude mice, NCI-H3122 xenograft", "conditions": "intraperitoneal, 10 mg/kg every other day, day 11", "quantity": "body weight", "result": "23.8 g and 26.5 g and 22.1 g and 25.3 g and 24.6 g"}
{"Structure (SMILES)": "COc1ccc(Nc2nc(Nc3ccc(OCCOCCOCC[18F])cc3)ncc2Br)cc1", "system": "ICR mice, S180 tumour", "conditions": "intravenous, 370 kBq, 60 min", "how to read": "baseline: tumour over bone", "quantity": "uptake ratio", "result": 1.02}
{"Structure (SMILES)": "N=C(N)NCCC[C@@H]1NC(=O)[C@H](CO)NC(=O)[C@@H](NC(=O)[C@H](CO)NC(=O)[C@H](CO)NC(=O)[C@H](Cc2c[nH]c3ccccc23)NC(=O)CNC(=O)[C@H](CO)NC(=O)[C@@H](N)Cc2c[nH]c3ccccc23)CSSC[C@@H](C(=O)NCC(=O)O)NC(=O)[C@H](CO)NC1=O", "system": "patients, plasma", "conditions": "intravenous, 10 mg/kg, thrice weekly, mean", "quantity": "volume of distribution (Vz)", "result": "438 L"}
{"Structure (SMILES)": "COc1cc(OC)c(/N=N/c2ccc(C(=O)NO)cc2)c(OC)c1", "system": "Water, DMSO 0.5%", "conditions": "50 µM, E isomer, after 370 nm irradiation", "quantity": "thermal half-life", "result": "4.3 min"}
{"Structure (SMILES)": "CC(C)(O)c1ncc([S@](N)(=O)=NC(=O)Nc2c3c(cc4c2CCC4)CCC3)s1", "test": "measured: Cardiac disorders", "system": "healthy human volunteers", "conditions": "oral, 25 mg twice daily, 14 days, enteric-coated tablet", "quantity": "subjects with adverse events", "result": "13%"}
{"Structure (SMILES)": "C=Cc1c(C)c2cc3nc(c(CC(=O)O)c4[nH]c(cc5nc(cc1[nH]2)C(C)=C5CC)c(C)c4C(=O)O)[C@@H](CCC(=O)OCCOCCOCCOC)[C@@H]3C", "test": "LC-MS", "system": "methanol-water 9:1", "conditions": "1 h, pH 8.0", "quantity": "compound loss", "result": "18%"}
{"Structure (SMILES)": "CN1CCC[C@]1(C)/C=C/S(=O)(=O)NC(=O)Nc1c2c(cc3c1CCC3)CCC2", "test": "measured: blood triglycerides increased, not related", "system": "human", "conditions": "oral, 100 mg twice daily, 14 days, multiple ascending dose", "quantity": "subjects with adverse event", "result": "16.7%"}
{"Structure (SMILES)": "Cc1nn(-c2nc3c(F)cc(F)cc3s2)c(O)c1C(c1ccc(C(F)(F)F)cc1)c1c(C)nn(-c2nc3c(F)cc(F)cc3s2)c1O", "system": "male ICR mouse, plasma", "conditions": "oral, 50 mg/kg", "quantity": "dose-normalised AUC(0-t)", "result": "7220 kg·ng·h/mL/mg and 7620 kg·ng·h/mL/mg and 7070 kg·ng·h/mL/mg"}
{"Structure (SMILES)": "Cc1cc(C)n(CCN(CCN)CCCCCCNC(=O)[C@@H](N)Cc2c[nH]c3ccccc23)n1.[99Tc+].[C-]#[O+].[C-]#[O+].[C-]#[O+]", "system": "BALB/c nude mice A549 xenograft", "conditions": "intravenous, 4 h", "how to read": "baseline: tumour over blood", "quantity": "tumour-to-tissue ratio", "result": 1.5}
{"Structure (SMILES)": "CC(=O)c1c(C)c2cnc(Nc3ccc(N4CCNCC4)cn3)nc2n(C2CCCC2)c1=O", "system": "G-Smo medulloblastoma mice (hGFAP-Cre x SmoM2), medulloblastoma tumour", "conditions": "intraperitoneal, 25 mg/kg single, dosed at postnatal day P10", "quantity": "AUC(0-t)", "result": "45100 ng·h/mL"}
{"Structure (SMILES)": "COC1C=COC2(C)Oc3c(C)c(O)c4c(c3C2=O)C2=NC3(CCN(CC(C)C)CC3)NC2=C(NC(=O)C(C)=CC=CC(C)C(O)C(C)C(O)C(C)C(OC(=O)Nc2cccnn2)C1C)C4=O (centres unmarked)", "system": "CD-1 mouse, female, plasma", "conditions": "oral, 10 mg/kg", "quantity": "oral bioavailability", "result": "44%"}
{"Structure (SMILES)": "O[C@@H]1[C@@H](O)[C@H](n2cc(-c3ccc(-c4nncnn4)cc3)nn2)O[C@H](C[18F])[C@H]1O", "system": "BALB/c nude mouse, LS174T xenograft", "conditions": "intravenous, dose not given, 1 h, with: CC49-TCO pretargeting", "quantity": "tumour to control tumour ratio", "result": 4.2}
{"Structure (SMILES)": "C[C@H](CCC(=O)NCC(=O)O)[C@H]1CC[C@H]2[C@@H]3[C@H](O)C[C@@H]4C[C@H](OS(=O)(=O)O)CC[C@]4(C)[C@H]3CC[C@]12C", "system": "human, plasma", "conditions": "control", "quantity": "Cmin", "result": "35.3 ± 5.7 nM"}
{"Structure (SMILES)": "COCC1CN(C2CCN(c3cc(OC)c(Nc4ncc(Br)c(Nc5ccc6c(c5P(C)(C)=O)OCCO6)n4)cc3C)CC2)C1", "system": "EGFR-mutant NSCLC patients", "conditions": "oral, 90 mg once daily", "quantity": "grade ≥3 treatment-related AEs", "result": "0%"}
{"Structure (SMILES)": "O=C(O)CCCOc1ccc([18F])cc1-c1cc(-c2ccccc2C(F)(F)F)n(-c2ccccc2)n1", "test": "OLINDA/EXM extrapolation from mouse", "system": "human adult, heart wall, highest organ", "conditions": "370 MBq", "quantity": "absorbed radiation dose", "result": "25.4 mGy"}
{"note": "For quick reference, copied from above:"}
{"Structure (SMILES)": "CN1CCC[C@]1(C)/C=C/S(=O)(=O)NC(=O)Nc1c2c(cc3c1CCC3)CCC2", "test": "measured: blood triglycerides increased, not related", "system": "human", "conditions": "oral, 100 mg twice daily, 14 days, multiple ascending dose", "quantity": "subjects with adverse event", "result": "16.7%"}
{"Structure (SMILES)": "Cc1nn(-c2nc3c(F)cc(F)cc3s2)c(O)c1C(c1ccc(C(F)(F)F)cc1)c1c(C)nn(-c2nc3c(F)cc(F)cc3s2)c1O", "system": "male ICR mouse, plasma", "conditions": "oral, 50 mg/kg", "quantity": "dose-normalised AUC(0-t)", "result": "7220 kg·ng·h/mL/mg and 7620 kg·ng·h/mL/mg and 7070 kg·ng·h/mL/mg"}
{"Structure (SMILES)": "Cc1cc(C)n(CCN(CCN)CCCCCCNC(=O)[C@@H](N)Cc2c[nH]c3ccccc23)n1.[99Tc+].[C-]#[O+].[C-]#[O+].[C-]#[O+]", "system": "BALB/c nude mice A549 xenograft", "conditions": "intravenous, 4 h", "how to read": "baseline: tumour over blood", "quantity": "tumour-to-tissue ratio", "result": 1.5}
